Results gathered from unrelated publications.
Cell line: NIH3T3

COc1ccc2nc3cc(Cl)ccc3c(NCCN3C(=O)c4ccc5c6c(ccc(c46)C3=O)C(=O)N(CCN(C)C)C5=O)c2c1  CC50 (cell growth or viability, MTT): > 0.02 µM
Cc1c(C)c(C)[c-](C)c1C.[Cl][Ir]1[O]C(=Nc2c(-c3ccccc3)cccc2-c2ccccc2)c2cccc[n+]21  cellular iridium uptake (ICP-MS; 10 µM, 24 h): 163 ng/10⁶ cells
CCCCNc1c2ccc(Cl)cc2nc2ccc(OC)cc12  CC50 (cell growth or viability, MTT): > 0.02 µM
CN1CCN(C(=O)c2ccc(-c3ccc4c(c3)/C(=C/c3ccc(N5CCNCC5)cc3)C(=O)N4)cc2)CC1  IC50 (cytotoxicity, WST-1; 48 h, 10% FBS): > 1 µM
C=C(C)[C@@H](O)COc1c2ccoc2cc2oc(=O)ccc12  IC50 (cell growth or viability, MTT; 24 h): 54.1 µM
CC(C)c1cccc(C(C)C)c1N=C1[O][Ir]([Cl])[n+]2ccccc21.Cc1c(C)c(C)[c-](C)c1C  cellular iridium uptake (ICP-MS; 10 µM, 24 h): 45 ng/10⁶ cells
CCCCCCCCCCCCCCCCCCCCCCCCCCCCCCOC(=O)/C=C/c1ccc(O)cc1  IC50 (cell growth or viability, MTT): > 100 µg/mL
O=C1Nc2ccc(-c3ccc(C(=O)N4CCOCC4)cc3)cc2/C1=C/c1ccc(N2CCNCC2)cc1  IC50 (cytotoxicity, WST-1; 48 h, 10% FBS): > 1 µM
COc1ccc(-c2c(O)oc3c(CC=C(C)C)c(O)cc(O)c3c2=O)cc1  IC50 (cell growth or viability, MTT): 5.8 µg/mL
CC(C)(O)C(O)COc1c2ccoc2cc2oc(=O)ccc12 (single isomer, unassigned; (+))  IC50 (cell growth or viability, MTT; 24 h): 83.5 µM
